Assay results gathered from unrelated publications.
Parts stem from different laboratories: compare values within a part only.

Set 1
Target: Sal-like protein 4, full length isoform A (SALL4, Homo sapiens, UniProt Q9UJQ4, residues 1-1053)
UniProt Q9UJQ4, sequence (whole entry, looked up): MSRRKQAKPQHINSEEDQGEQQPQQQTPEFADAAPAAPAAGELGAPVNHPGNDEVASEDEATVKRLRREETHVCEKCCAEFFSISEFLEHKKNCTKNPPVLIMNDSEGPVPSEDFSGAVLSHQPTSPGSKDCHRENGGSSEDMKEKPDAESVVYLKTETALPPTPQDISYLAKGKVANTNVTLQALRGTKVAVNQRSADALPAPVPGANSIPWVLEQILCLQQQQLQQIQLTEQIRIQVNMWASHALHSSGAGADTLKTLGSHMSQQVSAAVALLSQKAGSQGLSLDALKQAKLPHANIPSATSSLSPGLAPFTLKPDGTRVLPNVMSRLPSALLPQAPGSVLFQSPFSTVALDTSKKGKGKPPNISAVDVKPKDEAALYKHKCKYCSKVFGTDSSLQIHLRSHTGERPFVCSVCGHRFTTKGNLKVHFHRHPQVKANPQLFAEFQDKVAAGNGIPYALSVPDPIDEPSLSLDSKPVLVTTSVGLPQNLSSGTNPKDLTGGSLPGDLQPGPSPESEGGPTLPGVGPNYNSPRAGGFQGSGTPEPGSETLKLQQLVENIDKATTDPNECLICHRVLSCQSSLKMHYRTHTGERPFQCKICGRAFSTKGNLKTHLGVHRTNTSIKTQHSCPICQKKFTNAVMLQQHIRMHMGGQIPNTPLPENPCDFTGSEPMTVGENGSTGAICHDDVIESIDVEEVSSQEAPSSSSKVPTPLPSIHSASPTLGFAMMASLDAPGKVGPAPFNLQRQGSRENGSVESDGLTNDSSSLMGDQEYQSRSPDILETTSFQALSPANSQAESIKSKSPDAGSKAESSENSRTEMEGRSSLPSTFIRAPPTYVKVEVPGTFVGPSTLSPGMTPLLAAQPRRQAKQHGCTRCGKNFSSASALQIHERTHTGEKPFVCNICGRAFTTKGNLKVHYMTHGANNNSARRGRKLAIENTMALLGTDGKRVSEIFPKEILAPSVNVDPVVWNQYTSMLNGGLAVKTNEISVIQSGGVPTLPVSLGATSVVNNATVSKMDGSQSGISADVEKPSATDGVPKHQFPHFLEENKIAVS
Technique: universal PBM
Molecule type: double-stranded DNA, one strand shown
Matrix: in vitro
Tested at: 600 nM
Setting: 8-mer, flanks averaged, mean of replicates
Direction: higher = stronger binding
Sequence	E-score
GAATTGGC	-0.0584
TCAAAGGA	0.1
GTGGAGTA	0.0857
AGTTGTAG	0.104
ACCCACAC	-0.0612
ACTAGGAA	0.0462
ATTCGGTC	-0.0927
AGGCACGG	-0.166
AGTTGAAC	-0.0504
CAAAAGAC	0.152
CAGTACTA	0.142
CCAACCTA	-0.0371
GAAAGACC	-0.19
ATTCTCCA	0.182
CGCACGCA	-0.254
GGTGTTAA	0.0331
CACACTCC	-0.116
ATCGACGC	-0.0632

Set 2
Cell line: yeast with cyclin A1-Cln2 chimera
Observed: cell growth
Action: binder
Technique: competitive growth deep sequencing
Molecule type: peptide
Tested at: concentration not given
Setting: peptide tiling library
Direction: direction not given
Sequence	growth enrichment score
NARRSLNFGGSTGT	-0.213
IPDRSTKPVVFSPT	-0.582
PARRRLRLSVDEVSSP	-0.101
SSEVARHLLFQSHM	-0.278
IVLICAKRSLCAAFSV	-0.0865
LRRQLSFSED	-0.109
FREFEVEKQTAEETGL	1.2
RKLHFEDEVT	-0.351
AIRKMREDRWAVIAKM	-0.844
VLLKRLQDVVSERANH	0.501
EPRNLLSLFEDTLDPT	1.09
KPITLDTTDFQESFVT	0.0215
SCCKRKLVVGNGPEGP	-0.165
SAVPLILPQAPSGPSY	0.171
KRCATPVIIDEILPSK	0.219
TARRIFQEPTEPKTKA	-0.134
ALTMEALEDPSPELME	1.48
PAKRRLELGE	0.358
RRVLCFDS	-0.351
PLRKAKRARLCSSSSS	0.317

Set 3
Target: Histone acetyltransferase KAT6A, winged helix 2, GST fusion (KAT6A, Homo sapiens, UniProt Q92794, residues 85-181)
Technique: protein binding microarray
Molecule type: double-stranded DNA, one strand shown
Matrix: in vitro
Tested at: not given
Setting: 8-mer, flanks averaged, mean of 2 arrays, mostly near background
Reference: not given
Direction: higher = stronger binding
Construct (chain): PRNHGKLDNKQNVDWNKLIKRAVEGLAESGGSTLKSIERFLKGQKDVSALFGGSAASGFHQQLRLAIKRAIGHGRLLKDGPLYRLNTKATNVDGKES
Sequence	E-score
GAGTCATC	-0.12
CACTGGTA	-0.124
AGGCGGTC	0.173
GATGAGAA	-0.053
GAAAACTC	0.2
AGGTTCAG	0.124
ATGTACCA	-0.0733
GTGGCTGA	0.025
CCTATAGC	-0.185
TGCAGTAA	-0.211
ATAGCACG	-0.214
TAAGAGCA	0.121
ACATACCG	-0.139
AGGAAAGC	-0.0566
CATCAGCC	0.0738
ACGGCCAT	-0.137
CGGCTGGC	0.05
ATCTCAGC	-0.0525
ACAGGGCT	-0.133

Set 4
Target: Protein C-ets-1 (ETS1, Homo sapiens, UniProt P14921, residues 1-441, Y397A, full length assumed)
Technique: protein-binding microarray
Molecule type: double-stranded DNA, one strand shown
Matrix: in vitro
Tested at: not given
Setting: k-mer, scored over probes, only values ≥0.25
Direction: higher = stronger binding
Construct (chain): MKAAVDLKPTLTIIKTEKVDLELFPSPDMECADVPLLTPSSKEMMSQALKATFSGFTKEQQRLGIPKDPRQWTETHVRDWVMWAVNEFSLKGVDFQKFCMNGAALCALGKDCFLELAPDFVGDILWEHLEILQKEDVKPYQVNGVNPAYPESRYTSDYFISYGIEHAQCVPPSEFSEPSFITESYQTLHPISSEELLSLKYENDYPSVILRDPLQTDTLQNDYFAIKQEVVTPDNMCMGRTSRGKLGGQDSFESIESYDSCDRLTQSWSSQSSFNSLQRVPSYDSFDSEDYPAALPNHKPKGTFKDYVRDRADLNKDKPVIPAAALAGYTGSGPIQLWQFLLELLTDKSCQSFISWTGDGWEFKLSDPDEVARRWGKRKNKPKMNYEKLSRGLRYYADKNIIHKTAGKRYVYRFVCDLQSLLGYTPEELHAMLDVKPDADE
Sequence	E-score
CAACGTAC	0.254
AACATGAC	0.262
GAACTTCC	0.316
TAATGACA	0.371
ACAAACGA	0.301
GGCAACGA	0.279
CGTGCACG	0.298
GACGGCAA	0.328
AGTATATA	0.272
AACAGCAA	0.279
TGTGCCAA	0.32
ATCCGACA	0.337
ACATCCGT	0.335
CATTCGCG	0.254
AAACACAC	0.279
ATCCCCAC	0.282
CTGTACAG	0.266
AAATGTCA	0.319
ATTGCAAA	0.269
CAAATGTG	0.269
GCGTCAAA	0.258
AGCGGAAG	0.351
AGTTTTGC	0.283
GCACGTGC	0.258
TACCGGAA	0.361

Set 5
Target: Interferon regulatory factor 7, full length, phosphomimetic (IRF7, Homo sapiens, UniProt Q92985, residues 1-503, S101K/S471D/S472D/S475D/S476D/S477D/S483D/S484D/S487D)
Technique: protein-binding microarray
Molecule type: double-stranded DNA, one strand shown
Matrix: in vitro
Tested at: 250 nM
Setting: 60-bp whole probe
With: salmon DNA 0.4 mg/ml
Reference: random background probes
Direction: higher = stronger binding
Constant ends, left off below: GCCTAGCAC … GTCTTGATTCGCTTGACGCTGCTG
Target sequence (chain): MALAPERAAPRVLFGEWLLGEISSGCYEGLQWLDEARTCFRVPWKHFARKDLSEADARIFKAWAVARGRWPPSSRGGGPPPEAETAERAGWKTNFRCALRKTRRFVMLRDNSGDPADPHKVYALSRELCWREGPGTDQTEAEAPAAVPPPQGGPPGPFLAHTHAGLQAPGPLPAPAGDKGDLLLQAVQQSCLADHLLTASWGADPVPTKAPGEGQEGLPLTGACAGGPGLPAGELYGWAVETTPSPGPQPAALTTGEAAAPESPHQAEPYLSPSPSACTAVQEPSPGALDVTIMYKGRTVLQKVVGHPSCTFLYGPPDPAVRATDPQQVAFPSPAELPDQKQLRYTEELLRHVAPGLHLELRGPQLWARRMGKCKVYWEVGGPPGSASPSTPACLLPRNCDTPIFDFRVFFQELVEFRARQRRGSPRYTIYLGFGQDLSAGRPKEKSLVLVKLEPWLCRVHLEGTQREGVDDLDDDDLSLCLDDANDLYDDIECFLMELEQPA
Sequence	log fluorescence
TTAGGACTGCTACTGCTTTGGTGCTAG	-0.57 z-score
TTAGATATCTGTCTCGATTAGTGCTAG	0.557 z-score
GCATCGTAAGCAAAAATGATGTGCTAG	0.426 z-score
TCAAAAATCTTTGTTGGAACTGTGCTA	-0.269 z-score
TCAGGTCTCGCTTCATCACTGTGCTAG	4.65 z-score
TTGGGTTTCGGGTATCGGTTAGTGCTA	6.69 z-score
TTAGAACTGGGGACAGGATTAGTGCTA	-0.622 z-score
GACGGTCTCGGTCTCGGGTCGTGCTAG	2 z-score
TCATTTTACTTTCTATGACTGTGCTAG	1.98 z-score
TTAGGACTGGGGTATCGGTTTGTGCTA	2.14 z-score
TCACAGCTCCCTTTCTCACTGTGCTAG	-0.185 z-score
TTAGATATCAGACTGGAATAGTGCTAG	-0.0999 z-score
GATGATATCGGGTTTCGAGACGTGCTA	2.4 z-score
TTAGATGTCAGTCTCGATTAGTGCTAG	1.1 z-score
TTAGGTCTCCTACTGCGTTAGTGCTAG	-0.31 z-score
TCATTTCTCCTATTTAAACTGTGCTAG	2.66 z-score
TTAGGTTCCCTTTTCCATTAGTGCTAG	4.33 z-score
TTAGATTTCGGGTTTCGATTTGTGCTA	12.1 z-score

Some of these lines once more (set 3):
Sequence	E-score
CGGCTGGC	0.05
TGCAGTAA	-0.211
CCTATAGC	-0.185
TAAGAGCA	0.121
CACTGGTA	-0.124
AGGCGGTC	0.173
